Measurements of several laboratories.
Every numbered part comes from another study and shows a few of its results, in no order.
UniProt P22607, sequence (whole entry, unmodified, looked up): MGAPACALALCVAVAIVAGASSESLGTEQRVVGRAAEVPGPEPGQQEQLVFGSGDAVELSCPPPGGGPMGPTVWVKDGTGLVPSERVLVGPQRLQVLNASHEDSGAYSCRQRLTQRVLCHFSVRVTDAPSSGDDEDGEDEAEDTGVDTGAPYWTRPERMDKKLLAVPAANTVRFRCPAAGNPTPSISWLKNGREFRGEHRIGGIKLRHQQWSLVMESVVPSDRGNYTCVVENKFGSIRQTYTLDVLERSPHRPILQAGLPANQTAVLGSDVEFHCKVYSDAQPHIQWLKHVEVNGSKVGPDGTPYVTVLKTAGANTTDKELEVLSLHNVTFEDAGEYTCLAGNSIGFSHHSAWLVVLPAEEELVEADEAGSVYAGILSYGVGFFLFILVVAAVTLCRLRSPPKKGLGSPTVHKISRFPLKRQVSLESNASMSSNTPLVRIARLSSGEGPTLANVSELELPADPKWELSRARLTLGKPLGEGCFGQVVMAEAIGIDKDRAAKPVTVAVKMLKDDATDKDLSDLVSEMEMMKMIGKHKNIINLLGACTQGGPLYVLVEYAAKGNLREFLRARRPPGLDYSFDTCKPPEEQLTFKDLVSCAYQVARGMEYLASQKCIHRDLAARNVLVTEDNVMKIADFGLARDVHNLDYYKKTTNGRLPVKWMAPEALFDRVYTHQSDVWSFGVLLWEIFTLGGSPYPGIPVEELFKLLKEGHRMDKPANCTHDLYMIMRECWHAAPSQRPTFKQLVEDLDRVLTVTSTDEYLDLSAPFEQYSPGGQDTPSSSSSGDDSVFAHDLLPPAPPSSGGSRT
UniProt Q8TD08, sequence (whole entry, looked up): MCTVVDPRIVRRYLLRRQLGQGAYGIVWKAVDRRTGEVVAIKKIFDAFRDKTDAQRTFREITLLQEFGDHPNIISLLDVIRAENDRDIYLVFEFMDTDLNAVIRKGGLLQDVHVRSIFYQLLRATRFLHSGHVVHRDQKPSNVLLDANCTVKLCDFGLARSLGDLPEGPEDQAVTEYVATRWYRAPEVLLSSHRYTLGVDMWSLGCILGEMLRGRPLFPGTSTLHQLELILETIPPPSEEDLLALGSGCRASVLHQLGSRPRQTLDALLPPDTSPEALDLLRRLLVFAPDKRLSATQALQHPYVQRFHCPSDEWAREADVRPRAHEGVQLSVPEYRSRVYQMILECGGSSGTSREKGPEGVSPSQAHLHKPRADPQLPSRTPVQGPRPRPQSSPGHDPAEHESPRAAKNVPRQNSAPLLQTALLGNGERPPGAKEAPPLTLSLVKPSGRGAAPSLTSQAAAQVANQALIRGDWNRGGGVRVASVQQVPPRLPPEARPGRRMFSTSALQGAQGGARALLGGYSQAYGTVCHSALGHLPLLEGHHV
UniProt Q8N4C8, sequence (whole entry, looked up): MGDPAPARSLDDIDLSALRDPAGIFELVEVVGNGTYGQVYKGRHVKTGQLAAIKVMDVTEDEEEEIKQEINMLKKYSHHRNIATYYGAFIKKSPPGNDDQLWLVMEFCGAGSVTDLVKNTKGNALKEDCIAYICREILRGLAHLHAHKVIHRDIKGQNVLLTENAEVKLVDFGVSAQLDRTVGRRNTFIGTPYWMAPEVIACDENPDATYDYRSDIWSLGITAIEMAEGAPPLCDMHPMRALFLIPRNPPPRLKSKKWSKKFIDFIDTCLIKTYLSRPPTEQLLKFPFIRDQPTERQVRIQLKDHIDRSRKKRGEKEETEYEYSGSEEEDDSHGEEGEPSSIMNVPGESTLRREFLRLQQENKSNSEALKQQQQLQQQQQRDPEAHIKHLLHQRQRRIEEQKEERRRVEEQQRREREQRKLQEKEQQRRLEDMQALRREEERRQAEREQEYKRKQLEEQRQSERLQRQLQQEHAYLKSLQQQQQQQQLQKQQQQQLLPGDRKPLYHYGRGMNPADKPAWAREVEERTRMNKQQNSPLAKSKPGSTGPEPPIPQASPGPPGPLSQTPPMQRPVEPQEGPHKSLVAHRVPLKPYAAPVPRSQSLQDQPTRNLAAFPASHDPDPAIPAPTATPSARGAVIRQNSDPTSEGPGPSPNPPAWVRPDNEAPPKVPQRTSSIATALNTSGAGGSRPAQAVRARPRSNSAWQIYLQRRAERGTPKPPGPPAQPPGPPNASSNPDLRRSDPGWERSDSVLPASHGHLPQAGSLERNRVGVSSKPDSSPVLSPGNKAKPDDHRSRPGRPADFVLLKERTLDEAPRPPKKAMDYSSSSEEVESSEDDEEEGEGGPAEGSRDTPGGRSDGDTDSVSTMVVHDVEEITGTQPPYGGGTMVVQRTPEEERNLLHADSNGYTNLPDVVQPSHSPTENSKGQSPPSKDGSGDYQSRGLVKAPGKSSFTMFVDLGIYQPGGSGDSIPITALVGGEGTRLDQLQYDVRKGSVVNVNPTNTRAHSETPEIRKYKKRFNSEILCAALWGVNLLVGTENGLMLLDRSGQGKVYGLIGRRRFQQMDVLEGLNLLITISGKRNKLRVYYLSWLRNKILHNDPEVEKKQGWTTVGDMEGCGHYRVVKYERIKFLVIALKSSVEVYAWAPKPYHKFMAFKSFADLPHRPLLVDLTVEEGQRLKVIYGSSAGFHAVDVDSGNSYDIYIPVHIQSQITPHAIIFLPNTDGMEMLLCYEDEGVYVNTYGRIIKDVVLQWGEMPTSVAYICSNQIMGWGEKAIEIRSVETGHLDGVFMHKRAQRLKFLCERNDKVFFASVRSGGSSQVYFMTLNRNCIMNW
UniProt Q9NWZ3, sequence (whole entry, looked up): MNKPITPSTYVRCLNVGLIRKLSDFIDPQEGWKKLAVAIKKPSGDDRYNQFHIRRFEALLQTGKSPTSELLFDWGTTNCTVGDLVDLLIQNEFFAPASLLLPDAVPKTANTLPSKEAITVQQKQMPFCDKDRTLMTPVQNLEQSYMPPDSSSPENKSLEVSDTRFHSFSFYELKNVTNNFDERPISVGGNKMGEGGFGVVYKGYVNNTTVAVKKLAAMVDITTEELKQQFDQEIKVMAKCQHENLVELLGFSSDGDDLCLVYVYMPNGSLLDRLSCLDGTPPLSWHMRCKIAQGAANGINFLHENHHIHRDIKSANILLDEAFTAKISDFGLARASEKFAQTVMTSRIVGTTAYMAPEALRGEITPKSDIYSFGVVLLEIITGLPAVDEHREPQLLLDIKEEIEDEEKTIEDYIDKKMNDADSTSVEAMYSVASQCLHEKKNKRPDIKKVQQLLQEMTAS
UniProt Q96PN8, sequence (whole entry, looked up): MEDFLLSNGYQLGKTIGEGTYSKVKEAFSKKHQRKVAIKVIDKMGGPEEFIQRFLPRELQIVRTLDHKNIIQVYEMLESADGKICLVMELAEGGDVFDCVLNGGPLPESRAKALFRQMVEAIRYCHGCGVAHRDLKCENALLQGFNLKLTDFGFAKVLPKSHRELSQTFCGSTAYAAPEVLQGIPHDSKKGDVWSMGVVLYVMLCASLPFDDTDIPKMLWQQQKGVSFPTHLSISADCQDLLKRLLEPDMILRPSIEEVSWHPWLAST

Sample 1
Target: Mitogen-activated protein kinase kinase kinase 9 (MAP3K9, Homo sapiens, UniProt P80192)
UniProt P80192, sequence (whole entry, looked up): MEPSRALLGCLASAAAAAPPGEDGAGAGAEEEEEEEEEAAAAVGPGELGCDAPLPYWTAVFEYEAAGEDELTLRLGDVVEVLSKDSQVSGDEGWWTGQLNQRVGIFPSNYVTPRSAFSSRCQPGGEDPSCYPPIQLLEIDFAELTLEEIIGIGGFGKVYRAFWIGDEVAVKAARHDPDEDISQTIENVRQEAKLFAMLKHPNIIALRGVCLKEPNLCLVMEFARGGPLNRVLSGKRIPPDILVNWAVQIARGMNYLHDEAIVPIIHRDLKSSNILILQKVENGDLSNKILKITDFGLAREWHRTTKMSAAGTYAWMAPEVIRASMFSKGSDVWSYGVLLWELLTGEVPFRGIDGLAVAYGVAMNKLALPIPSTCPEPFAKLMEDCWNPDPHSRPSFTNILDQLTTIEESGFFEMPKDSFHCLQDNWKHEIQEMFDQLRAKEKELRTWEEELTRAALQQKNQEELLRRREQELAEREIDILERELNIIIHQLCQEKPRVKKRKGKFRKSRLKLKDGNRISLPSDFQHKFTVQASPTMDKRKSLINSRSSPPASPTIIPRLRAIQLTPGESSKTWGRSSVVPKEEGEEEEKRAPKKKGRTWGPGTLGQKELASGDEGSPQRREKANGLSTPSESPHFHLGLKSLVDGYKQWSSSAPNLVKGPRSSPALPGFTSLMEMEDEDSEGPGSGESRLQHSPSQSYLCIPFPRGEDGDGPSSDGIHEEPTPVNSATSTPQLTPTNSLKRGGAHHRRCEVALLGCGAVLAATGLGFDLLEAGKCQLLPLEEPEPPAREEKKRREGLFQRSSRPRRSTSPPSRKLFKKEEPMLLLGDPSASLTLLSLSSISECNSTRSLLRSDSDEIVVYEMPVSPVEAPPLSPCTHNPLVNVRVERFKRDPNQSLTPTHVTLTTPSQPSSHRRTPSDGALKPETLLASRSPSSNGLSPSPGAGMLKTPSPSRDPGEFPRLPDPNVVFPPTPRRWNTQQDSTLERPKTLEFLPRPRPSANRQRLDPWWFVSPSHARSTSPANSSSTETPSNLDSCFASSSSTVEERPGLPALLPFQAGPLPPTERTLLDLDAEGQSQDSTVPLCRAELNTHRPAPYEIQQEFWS
Observed: enzyme activity
Action: inhibitor
Concentration: 0.5 µM
Relative to: control
Endpoint: remaining activity
CC(C)[C@H](CO)Nc1nc(Nc2cc(N)cc(Cl)c2)c2ncn(C(C)C)c2n1: 7.81%
O=C(CCCc1ccc(-c2ccccc2F)cc1)Nc1ccc(O)cc1: 100%
Cn1c2ccccc2c2c3c(c4c5ccccc5n(CCC#N)c4c21)CNC3=O: 1.49%
COc1ccc(C(=O)Nc2sc3c(c2C(N)=O)CCCC3)cc1OC: 100%
Oc1ccc(-c2nc(-c3ccncc3)c(-c3ccc(F)cc3)[nH]2)cc1: 53.1%
Cn1sc(=O)n(Cc2ccccc2)c1=O: 99.4%
COc1ccc(CNC(=O)Nc2ncc([N+](=O)[O-])s2)cc1: 101%
O=C(Nc1cccc(Nc2cc(Nc3cccc(C(F)(F)F)c3)ncn2)c1)C1CC1: 107%
OCC(O)CCON=C1C(c2c(O)[nH]c3ccccc23)=Nc2ccccc21 (centres unmarked): 7.06%
O=S(=O)(c1cccc2cnccc12)N1CCCNCC1: 94.4%
Cc1ccc(Nc2nccc(N(C)c3ccc4c(C)n(C)nc4c3)n2)cc1S(N)(=O)=O: 10.6%
COc1cc2nccc(Oc3ccc(NC(=S)NC(=O)c4ccccc4C)cc3)c2cc1OC: 99.3%
COc1cc2ncnc(Nc3ccc(Oc4ccccc4)cc3)c2cc1OC: 57.7%
O=c1c2ccccc2[nH]c(=S)n1CCN1CCC(=C(c2ccc(F)cc2)c2ccc(F)cc2)CC1: 111%
Nc1ncnc2n[nH]c(Nc3ccc(F)cc3)c12: 100%

Sample 2
Compound: NS(=O)(=O)c1cc(NC(=O)C2(c3ccccc3Cl)CC2)ccc1Oc1cccc(Cl)c1
Observed: cell-free assay
Technique: competition with immobilised ligand
Concentration: 1 µM
Endpoint: remaining binding
Tyrosine-protein kinase JAK1, JH1 (JAK1, Homo sapiens, UniProt P23458): 90%
PRKD2 (Homo sapiens, UniProt Q9BZL6): 87%
Tyrosine-protein kinase ABL1, non-phosphorylated (ABL1, Homo sapiens, UniProt P00519, Q252H): 58%
MAP2K5 (Homo sapiens, UniProt Q13163): 94%
CDK16 (Homo sapiens, UniProt Q00536): 100%
Tyrosine-protein kinase ABL1, phosphorylated (ABL1, Homo sapiens, UniProt P00519, F317L): 71%
MINK1 (Homo sapiens, UniProt Q8N4C8): 86%
RET (Homo sapiens, UniProt P07949): 84%
WNK2 (Homo sapiens, UniProt Q9Y3S1): 88%
PIM2 (Homo sapiens, UniProt Q9P1W9): 76%
PHKG1 (Homo sapiens, UniProt Q16816): 89%
FGFR3 (Homo sapiens, UniProt P22607, G697C): 100%
TSSK3 (Homo sapiens, UniProt Q96PN8): 100%
MAPK15 (Homo sapiens, UniProt Q8TD08): 65%
IRAK4 (Homo sapiens, UniProt Q9NWZ3): 61%
MST1R (Homo sapiens, UniProt Q04912): 99%
PIM3 (Homo sapiens, UniProt Q86V86): 88%

Sample 3
Target: Centromere-binding protein 1, full length, His-tagged (CBF1, Saccharomyces cerevisiae, UniProt P17106, residues 1-351)
UniProt P17106, sequence (whole entry, looked up): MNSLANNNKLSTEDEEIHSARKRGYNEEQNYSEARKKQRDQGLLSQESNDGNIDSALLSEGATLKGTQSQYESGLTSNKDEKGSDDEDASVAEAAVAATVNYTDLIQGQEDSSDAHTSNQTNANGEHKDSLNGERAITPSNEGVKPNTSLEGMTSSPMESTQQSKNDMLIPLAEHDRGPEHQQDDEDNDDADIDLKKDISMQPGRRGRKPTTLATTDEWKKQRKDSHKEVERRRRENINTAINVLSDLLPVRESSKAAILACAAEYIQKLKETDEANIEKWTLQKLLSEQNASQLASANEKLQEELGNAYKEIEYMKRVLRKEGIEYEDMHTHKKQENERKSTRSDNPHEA
Technique: competition protein-binding microarray
Form: double-stranded DNA, one strand shown
Matrix: in vitro
Concentration: 2 µM
Notes: whole 60-bp probe, lowest competitor level
Together with: Pho4 competitor, 0.05 µM
Reading: higher = stronger binding
Endpoint: fluorescence intensity
TTCTGCAGATAGTCTCTCGTGACTCGAATCTCGGAAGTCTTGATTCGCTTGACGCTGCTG: 514 a.u.
ACTAATTAAGGTTCTCACGTGGAACTTCCGTCAATGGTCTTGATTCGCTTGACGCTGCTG: 923 a.u.
CATACCCAACCTTGAGTGGTGGGTGAAGATATTTGTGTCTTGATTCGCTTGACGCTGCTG: 66.8 a.u.
ACCTATGCTAAAATTCACGTGTAGGCATTTCAAAATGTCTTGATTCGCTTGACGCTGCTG: 930 a.u.
TAAACTTTCTACGGCCACGTGTAACCTCTTTCAGAAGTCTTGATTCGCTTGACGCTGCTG: 876 a.u.
CTATTCTTGCTAATTGACGTGCGATGGTACCAGGAGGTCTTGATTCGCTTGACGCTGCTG: 88.1 a.u.
AAGACGAAAGGAGTGCAGGTGATGACAACCTCAGTGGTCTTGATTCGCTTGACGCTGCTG: 97.5 a.u.
GAAATCAGAGAAGGTCCCGTGTCGGTAGGTACCTTAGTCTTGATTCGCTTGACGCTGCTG: 177 a.u.

Further values, each from its own experiment
Technique: cross-linking MS
Matrix: cell fractions
Together with: DSSO
CGN: CGN (Homo sapiens, UniProt Q9P2M7)
DOCK7 (Homo sapiens, UniProt Q96N67) — cross-linked residues (SIKE1 (Homo sapiens, UniProt Q9BRV8)): S1035 to K7
EIF2S3 (Homo sapiens, UniProt P41091) — cross-linked residues (CGN): S198 to T472
ATP2B1 (Homo sapiens, UniProt P20020) — cross-linked residues (CGN): S642 to K384
CALD1 (Homo sapiens, UniProt Q05682) — cross-linked residues (DHX29 (Homo sapiens, UniProt Q7Z478)): K781 to K401

For quick reference, copied from above (sample 1):
OCC(O)CCON=C1C(c2c(O)[nH]c3ccccc23)=Nc2ccccc21 (centres unmarked): 7.06%
COc1cc2ncnc(Nc3ccc(Oc4ccccc4)cc3)c2cc1OC: 57.7%
O=c1c2ccccc2[nH]c(=S)n1CCN1CCC(=C(c2ccc(F)cc2)c2ccc(F)cc2)CC1: 111%
O=S(=O)(c1cccc2cnccc12)N1CCCNCC1: 94.4%
